{"data": "Measurements gathered from unrelated publications", "note": "Numbered parts are unrelated; each lists some results of a single study. Changes are numbered by the printed parent chain."}
{"data": "Series 1", "target": "RING finger protein unkempt homolog, zinc fingers 1-6, GST-SBP tag (UNK, Homo sapiens, UniProt Q9C0B0, residues 30-357)", "technique": "RNA Bind-n-Seq", "form": "RNA", "sample": "in vitro", "tested at": "not given", "notes": "RNA with constant flanks, human-mouse chimeric sites, ends assumed", "relative to": "input RNA pool", "reading": "higher = stronger binding", "all sequences stand within": "GGGAGUUCUACAGUCCGACGAUC … CAACAGAGGAUUGAGCAUCA", "UniProt Q9C0B0, sequence (30-357, looked up)": "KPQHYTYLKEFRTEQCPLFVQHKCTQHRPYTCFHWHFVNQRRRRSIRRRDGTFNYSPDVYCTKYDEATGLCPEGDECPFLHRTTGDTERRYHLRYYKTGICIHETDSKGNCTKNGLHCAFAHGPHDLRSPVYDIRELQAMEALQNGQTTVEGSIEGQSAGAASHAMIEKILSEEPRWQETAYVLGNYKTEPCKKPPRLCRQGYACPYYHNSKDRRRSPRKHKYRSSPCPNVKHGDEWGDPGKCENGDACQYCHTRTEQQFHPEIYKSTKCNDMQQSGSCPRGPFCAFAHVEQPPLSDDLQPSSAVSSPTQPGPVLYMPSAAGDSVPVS"}
{"Oligonucleotide": "ACUCUUGACUCUUUCCAUCCUCUUCCUUUUCCUCUUGAUAUUCAAGGCCAUGAAUCCCAAAAUAACAGUCUUAGUGGCUAGCACCCAAACAGAGGUGGGUGCCAUCCACCCCAGUGUCUC", "bound/input enrichment [ratio]": 0.444}
{"Oligonucleotide": "UGUGCAUUAUGAUGCUUAGAUGGUUUUUGCAAAAGCAGAAAUCGCUGCAAGGUAAUCACAAUAGAUAAAAGUGGUAUUUUAAACCUUUGAAAGGAAUGGAUGUAACUGUACCUUGGUACA", "bound/input enrichment [ratio]": 0.317}
{"Oligonucleotide": "AGCACAACCCCAGCAAAGCUAAGAAAUCCUUGUACAAGUGAACAAAACUGCACCAGCCCAUUUAGCUACAAAAAUGUGCUUAGUCUUACUGACAGAGGAGAAGUAUUUAAUGAACUUGUU", "bound/input enrichment [ratio]": 0.487}
{"Oligonucleotide": "GGCUGCUGGUGACUGUCCUGGAGUGGCUGGAGUUCCCGCCGGAGCGCGGCCAGACUAAUUAUAGAAAAUGCCAAGUAGGAAGUUUGUUGAGGGUGAAGUGGUAAGAGGCCGAUGGCCUGG", "bound/input enrichment [ratio]": 5.87}
{"Oligonucleotide": "AGUGUGCAGGAAUUCAUGACCUUUACAAGUCAACUGAUUGUGGAACGCUCAUCGAAAGGCAGCAGAGCUUCUGUCAAAGAACAAGAGUAUCUUUGCCAUGUCUACGUCCGGAAUGAUAGU", "bound/input enrichment [ratio]": 0.13}
{"Oligonucleotide": "GGCUGCUGGUGACUGUCCUGGAGUGGCUGGAGUUCCCCCGGAACCUGGGCCAGACUAAUUUUAGAAAAUGCCAAGUAGGAAGUUUGUCGAUGGUGAAGUGGUCAGAGGCCGAUGGCCUGG", "bound/input enrichment [ratio]": 1.6}
{"Oligonucleotide": "UAAAUUAGGGCUGCCGUUUUCUGUUUCUCCCUGGGCUGCGGAAAGCCAGAAGAUUUUAUCUAGUUUGUACAAGGCUGCUGGUGUUCCCUCUUUUUUUCCACGAGGGUUUUUUUUCCAGCA", "bound/input enrichment [ratio]": 1.58}
{"Oligonucleotide": "AGAAUCUGUGACUGGCUUUACUUAAUUGGUCAUUGGUAGCUUAACAAACAUGGAGAUAAGAUUAGAAAUCUUGACAUCAACAGGUAUUAAGCAGAAAAAACCAUGGCCACGUGUCUCCUG", "bound/input enrichment [ratio]": 0.114}
{"Oligonucleotide": "UACAUUUUAUUGUUGAGUUUCAUUUUCAUAUAUUCUUAUGGUGUCUGCUUGCCUGUGACUUCUGGUAAAAUAAAAUAAGCCUUUGAAAAUAUUUUAGCAUGGUAUUUAACAUUUUCUAAA", "bound/input enrichment [ratio]": 1.38}
{"data": "Series 2", "target": "CCNE1, cyclin fold, Cln2 fusion (human)", "technique": "yeast growth competition, sequencing", "sample": "yeast", "notes": "strong parent motif", "relative to": "not given", "reading": "higher = stronger binding", "starting sequence": "BRCA2 docking peptide (human); PSIKRNLLNEFDR; partner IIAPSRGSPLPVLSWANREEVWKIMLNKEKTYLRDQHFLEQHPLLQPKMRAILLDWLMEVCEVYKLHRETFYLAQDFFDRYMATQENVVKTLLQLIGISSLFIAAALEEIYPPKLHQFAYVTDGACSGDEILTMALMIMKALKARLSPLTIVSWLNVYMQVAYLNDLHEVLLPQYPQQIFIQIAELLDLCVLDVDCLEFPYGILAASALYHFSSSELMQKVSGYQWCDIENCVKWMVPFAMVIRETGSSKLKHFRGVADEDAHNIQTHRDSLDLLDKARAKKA"}
{"Change": "E10M", "normalised enrichment score": 0.854}
{"Change": "F11Q", "normalised enrichment score": 0.278}
{"Change": "I3N", "normalised enrichment score": -0.0987}
{"Change": "I3C", "normalised enrichment score": 5.92}
{"Change": "R5C", "normalised enrichment score": -0.0137}
{"Change": "I3R", "normalised enrichment score": -0.0704}
{"Change": "N9C", "normalised enrichment score": 1.53}
{"data": "Series 3", "target": "Ras GTPase-activating protein-binding protein 1, RRM domain (G3BP1, Homo sapiens, UniProt Q13283)", "technique": "RNA Bind-n-Seq", "form": "RNA", "sample": "in vitro", "tested at": "1 µM", "notes": "whole 134-nt RNA, ends assumed", "together with": "150 mM KCl", "relative to": "input library", "reading": "higher = stronger binding", "all sequences stand within": "GGGAGUUCUACAGUCCGACGAUC … UGGAAUUCUCGGGUGUCAAGG", "UniProt Q13283, sequence (whole entry, looked up)": "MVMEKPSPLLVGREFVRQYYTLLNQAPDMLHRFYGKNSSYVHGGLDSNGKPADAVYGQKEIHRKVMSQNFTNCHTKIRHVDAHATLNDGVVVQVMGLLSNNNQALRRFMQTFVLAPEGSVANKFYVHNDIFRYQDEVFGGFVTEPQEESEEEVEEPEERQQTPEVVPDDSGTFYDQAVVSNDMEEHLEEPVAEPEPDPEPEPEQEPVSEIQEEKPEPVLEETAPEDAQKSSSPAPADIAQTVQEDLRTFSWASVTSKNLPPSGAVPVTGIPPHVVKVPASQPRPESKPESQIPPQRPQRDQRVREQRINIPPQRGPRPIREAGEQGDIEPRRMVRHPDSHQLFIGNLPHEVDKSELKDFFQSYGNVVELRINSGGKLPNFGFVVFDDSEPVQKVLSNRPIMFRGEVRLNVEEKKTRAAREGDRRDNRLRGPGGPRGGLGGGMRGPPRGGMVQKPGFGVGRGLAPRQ"}
{"Oligonucleotide": "UGCUUCUCUAUGGAAAGGACUUUCCCCCAAGCUGGACGAGGCAUUAAGAAGGAUAGAGGACUCCAGCAGGCUGACUCUACACUUCAUCAU", "log2 enrichment": -0.226}
{"Oligonucleotide": "CACAGACAACACGCACCCACACAGACACAGAGGGAAGAAAUUGGGAUGGGGACAGGGUGCACAGCAGGGCGGGGUAGGACCCCAGCCCCU", "log2 enrichment": -0.151}
{"Oligonucleotide": "UACUAUCAAACAAUCGGAAACCACGCGUCCUACUACAAAGAUGCUCUGCGGUUUUUGGGCUGUGUUGACAUCAAGGAUCUACCAGGUAAC", "log2 enrichment": -0.329}
{"Oligonucleotide": "UCCUGUGCUACACAUCGUAUGUACCGAAUCGGUUUUUUUGGUUUUUUUGGGUUUUUUUGGAAAGUAUUAUGUUACGCCGUUCGGAUCUGC", "log2 enrichment": -0.093}
{"Oligonucleotide": "CUGUGCUACACAUCGUAUGUACCGAAUCGGGGUUUUUUUGGGGUUUUUUUGGUUUUUUUGGAAAGUAUUAUGUUACGCCGUUCGGAUCUG", "log2 enrichment": -0.178}
{"Oligonucleotide": "AGUCCUGUGCUACACAUCGUAUGUACCGAAUCGGGGUUUUUGGGGAGGGGAAAGGGGAAAGUAUUAUGUUACGCCGUUCGGAUCUGCACU", "log2 enrichment": 1.09}
{"Oligonucleotide": "UCAAGUCCUGUGCUACACAUCGUAUGUACCGAAUCGGAGGAAAAAAAGGUUUGGAAAGUAUUAUGUUACGCCGUUCGGAUCUGCACUUCC", "log2 enrichment": -0.223}
{"data": "Single results of other studies"}
{"Substance": "PhoQ, residues 284 288 289 292 302 303 TGYLSA", "target": "PhoP, residues 12 14 15 18 19 NQAHL (Escherichia coli, UniProt P23836)", "test": "Sort-seq, refers to: YFP reporter", "system": "E. coli", "setting": "PhoQ-PhoP variant library, together with: 10 µM Mg2+", "scale": "relative to: high Mg2+ state, higher = stronger signaling", "endpoint": "fold induction", "value": 14.7}
{"note": "Repeated from above (series 1):"}
{"Oligonucleotide": "GGCUGCUGGUGACUGUCCUGGAGUGGCUGGAGUUCCCCCGGAACCUGGGCCAGACUAAUUUUAGAAAAUGCCAAGUAGGAAGUUUGUCGAUGGUGAAGUGGUCAGAGGCCGAUGGCCUGG", "bound/input enrichment [ratio]": 1.6}
{"Oligonucleotide": "GGCUGCUGGUGACUGUCCUGGAGUGGCUGGAGUUCCCGCCGGAGCGCGGCCAGACUAAUUAUAGAAAAUGCCAAGUAGGAAGUUUGUUGAGGGUGAAGUGGUAAGAGGCCGAUGGCCUGG", "bound/input enrichment [ratio]": 5.87}
